Published values of several laboratories.
± marks the error that the study gave.

OCc1cn(Cc2ccc(-c3noc(-c4ccc(OCC[18F])c(C(F)(F)F)c4)n3)cc2)nn1  tissue uptake (female Lewis rat, fat; intravenous, 5 min): 0.51 ± 0.22 %ID/g
CC(C)[C@H](NC(=O)[C@@H]1CCCN1C(=O)[C@H](CCCNC(=N)N)NC(=O)[C@H](CS)NC(=O)[C@H](Cc1c[nH]c2ccccc12)NC(=O)[C@H](CCCNC(=N)N)NC(=O)[C@@H](Cc1ccccc1)NC(=O)[C@H](Cc1c[nH]cn1)NC(=O)[C@H](CCC(=O)O)NC(=O)[C@H](CS)NC(=O)[C@H](CS)NC(=O)[C@@H]1CC(=O)N[C@@H](CCCNC(=N)N)C(=O)NCC(=O)N[C@@H](CC(=O)O)C(=O)N[C@H](Cc2ccc(O)cc2)C(=O)N1)C(N)=O [technetium-99m labelled]  tissue uptake (C57 mouse, female, B16/F1 melanoma, tumor; intravenous, 0.037 MBq, 4 h): 12.1 ± 1.45 %ID/g
CN(C)c1ccc(-c2nc3ccc(OCCCCCN4CCN5CCN(CC4)CC(=O)[O][Al]([18F])[O]C(=O)C5)cc3s2)cc1  tissue uptake (ICR mouse, brain; intravenous, 30 min): 0.12 ± 0.1 %ID/g
O=C([O-])CN1CCN(CC(=O)[O-])CCN(CC(=O)NCCc2ccc3c(c2)C2C=CCC2C(c2cc4c(cc2Br)OCO4)N3)CCN(CC(=O)[O-])CC1.[111In+3] (centres unmarked)  tissue uptake (mouse, Hec50 endometrial tumour, uterus; 4 h post injection): 0.66 ± 0.03 %ID/g
CCCC[C@H](NC(=O)CNC(=O)CNC(=O)CN1CCN(CC(=O)O)CCN(CC(=O)O)CCN(CC(=O)O)CC1)C(=O)N[C@H]1CC(=O)NCCCC[C@@H](C(N)=O)NC(=O)[C@H](Cc2c[nH]c3ccccc23)NC(=O)[C@H](CCCNC(=N)N)NC(=O)[C@@H](Cc2ccccc2)NC(=O)[C@H](Cc2c[nH]cn2)NC1=O [copper-64 labelled]  tissue uptake (female C57 mouse, B16/F1 melanoma, stomach; intravenous, 0.037 MBq, 2 h): 4.78 ± 0.96 %ID/g
CC(C)[C@H](NC(=O)[C@@H]1CCCN1C(=O)[C@H](CCCNC(=N)N)NC(=O)[C@H](CS)NC(=O)[C@H](Cc1c[nH]c2ccccc12)NC(=O)[C@H](CCCNC(=N)N)NC(=O)[C@@H](Cc1ccccc1)NC(=O)[C@H](Cc1c[nH]cn1)NC(=O)[C@H](CCC(=O)O)NC(=O)[C@H](CS)NC(=O)[C@H](CS)NC(=O)CNC(=O)[C@@H]1CC(=O)N[C@@H](CCCNC(=N)N)C(=O)NCC(=O)N[C@@H](CC(=O)O)C(=O)N[C@H](Cc2ccc(O)cc2)C(=O)N1)C(N)=O [technetium-99m labelled]  tissue uptake (C57 mouse, female, B16/F1 melanoma, liver; intravenous, 0.037 MBq, 0.5 h): 3.44 ± 0.73 %ID/g
O=C(O)C1CN(Cc2ccc(-c3noc(-c4ccc(OCC[18F])c(C(F)(F)F)c4)n3)cc2)C1  tissue uptake (male Sprague-Dawley rat, blood; intravenous, 5 min): 0.304 ± 0.058 %ID/g
CCCC[C@H](NC(=O)CNC(=O)CNC(=O)CN1CCN(CC(=O)O)CCN(CC(=O)O)CC1)C(=O)N[C@H]1CC(=O)NCCCC[C@@H](C(N)=O)NC(=O)[C@H](Cc2c[nH]c3ccccc23)NC(=O)[C@H](CCCNC(=N)N)NC(=O)[C@@H](Cc2ccccc2)NC(=O)[C@H](Cc2c[nH]cn2)NC1=O [copper-64 labelled]  tissue uptake (female C57 mouse, B16/F1 melanoma, liver; intravenous, 0.037 MBq, 2 h): 0.69 ± 0.06 %ID/g

Repeated from above:
CCCC[C@H](NC(=O)CNC(=O)CNC(=O)CN1CCN(CC(=O)O)CCN(CC(=O)O)CCN(CC(=O)O)CC1)C(=O)N[C@H]1CC(=O)NCCCC[C@@H](C(N)=O)NC(=O)[C@H](Cc2c[nH]c3ccccc23)NC(=O)[C@H](CCCNC(=N)N)NC(=O)[C@@H](Cc2ccccc2)NC(=O)[C@H](Cc2c[nH]cn2)NC1=O [copper-64 labelled]  tissue uptake (female C57 mouse, B16/F1 melanoma, stomach; intravenous, 0.037 MBq, 2 h): 4.78 ± 0.96 %ID/g
